Measurements from different studies.
A part holds a random share of what one study measured. Values joined by “and” are separate records of one study, mostly repeats; a detail may differ.
Sequence of UniProt P9WI81 (whole entry, looked up): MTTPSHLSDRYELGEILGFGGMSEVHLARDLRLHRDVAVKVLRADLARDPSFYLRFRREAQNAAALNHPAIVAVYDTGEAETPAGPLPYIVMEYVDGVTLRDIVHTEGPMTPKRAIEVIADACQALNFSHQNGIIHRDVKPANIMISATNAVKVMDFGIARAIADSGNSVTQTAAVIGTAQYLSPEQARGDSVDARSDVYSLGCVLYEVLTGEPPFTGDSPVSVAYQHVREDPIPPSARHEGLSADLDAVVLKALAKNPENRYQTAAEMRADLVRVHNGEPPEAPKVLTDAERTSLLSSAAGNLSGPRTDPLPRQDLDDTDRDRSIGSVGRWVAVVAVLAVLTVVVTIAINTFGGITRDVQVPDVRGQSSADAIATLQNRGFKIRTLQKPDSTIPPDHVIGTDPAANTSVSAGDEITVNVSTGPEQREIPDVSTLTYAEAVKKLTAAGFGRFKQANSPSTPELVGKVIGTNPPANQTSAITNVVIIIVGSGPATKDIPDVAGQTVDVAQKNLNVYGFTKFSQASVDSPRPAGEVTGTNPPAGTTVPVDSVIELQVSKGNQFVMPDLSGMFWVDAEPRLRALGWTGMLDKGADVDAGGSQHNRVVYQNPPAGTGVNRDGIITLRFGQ

Study 1 — technique: CCK-8
SMILES: CC[C@@H](C)c1nc2cc(Nc3ccnc4ccc(S(=O)(=O)C(C)C)cc34)ccc2s1.Cl
For L929 RIPK3-/- reexpressing RIPK3 K51A/R69H; 3.125 µM, added: zVAD: survival read 102% and 100% and 101%.
For L929 RIPK3-/- reexpressing RIPK3 K51A/R69H; 1.563 µM, added: zVAD: survival read 98.9% and 97.3% and 99.5% and 101% and 99.4%.
L929 RIPK3-/- reexpressing RIPK3 K51A; 25 µM, added: zVAD — survival: 65.5% and 92.6% and 114% and 88.7%.
For L929 RIPK3-/- reexpressing RIPK3 K51A/R69H; 6.25 µM: survival read 99.6% and 94.5% and 96.5% and 91.6%.
For L929 RIPK3-/- reexpressing RIPK3 K51A/R69H; 12.5 µM, added: zVAD: survival read 99.1% and 96.4% and 94.7% and 95.9%.

Study 2 — mode: antagonist
Target: Beta-1 adrenergic receptor (ADRB1, Homo sapiens, UniProt P08588)
Sequence of UniProt P08588 (whole entry, looked up): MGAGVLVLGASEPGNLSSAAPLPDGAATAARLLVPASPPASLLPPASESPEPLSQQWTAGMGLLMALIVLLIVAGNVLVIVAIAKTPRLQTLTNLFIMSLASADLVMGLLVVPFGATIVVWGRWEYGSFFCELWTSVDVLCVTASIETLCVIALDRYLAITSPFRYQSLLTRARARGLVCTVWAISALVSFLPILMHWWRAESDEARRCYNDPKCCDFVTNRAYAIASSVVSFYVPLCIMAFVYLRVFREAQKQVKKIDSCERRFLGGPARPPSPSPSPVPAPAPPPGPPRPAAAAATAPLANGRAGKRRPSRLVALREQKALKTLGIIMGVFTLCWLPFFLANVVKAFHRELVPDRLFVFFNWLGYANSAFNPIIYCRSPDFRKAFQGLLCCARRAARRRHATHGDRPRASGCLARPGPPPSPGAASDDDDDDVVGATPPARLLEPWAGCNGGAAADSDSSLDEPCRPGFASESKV
With `CC(Cc1ccccc1)NCCN1CCOCC1` (centres unmarked) the IC50 was no less than 100 µM.
`c1cc(N2CCNCC2)c2cc[nH]c2c1` has an IC50 of no less than 100 µM.
For `Cn1c(N2CCNCC2)cc(=O)n(C)c1=O`, the IC50 was no less than 100 µM.
The IC50 of `CNCC(O)c1ccc(O)c(OC)c1` (centres unmarked) is reported as no less than 100 µM.

Single results of other studies
The remaining binding of `O=C(NCc1ncc(C(F)(F)F)cc1Cl)c1ccc2c(c1)C1(CCS(=O)(=O)CC1)[C@@H](C1CC1)N2S(=O)(=O)c1ccc(F)cc1` is reported as 84% (Serine/threonine-protein kinase PknB (pknB, Mycobacterium tuberculosis, UniProt P9WI81); cell-free assay, competition with immobilised ligand; 1 µM).
`CNC(=O)c1ccc(-c2cnn3ccc(C(=O)N(C)c4ccc(Cl)c(C(=O)OC)c4)cc23)cc1` — result for “fecal score AUC”: 3.5 and 4 and 6 and 6.25 and 2.5 and 5.25 (Cryptosporidium parvum; neonatal calves; dose not given, 7 days; direction not given).

Excerpt of the above (study 1):
For L929 RIPK3-/- reexpressing RIPK3 K51A/R69H; 3.125 µM, added: zVAD: survival read 102% and 100% and 101%.
